Measurements collected from several papers.
Lines come from different studies, so protocols differ. Numbers after ± are the reported error.
Cell line: PC-3

COc1ccc(-c2cc(-c3ccc4ccccc4c3)c3c(=O)[nH]c(=O)[nH]c3n2)cc1
IC50 (cell growth or viability, MTT; 48 h): < 5 µM

CC(=O)O[C@@]12CO[C@@H]1C[C@H](O)[C@@]1(C)C(=O)[C@H](O)C3=C(C)[C@@H](OC(=O)[C@H](O)[C@@H](NC(=O)OC(C)(C)C)c4ccccc4)C[C@@](O)([C@@H](OC(=O)c4ccccc4)[C@H]21)C3(C)C
IC50 (cell growth or viability, SRB; 96 h): 0.013 µM

CN1CCC2(CC1)C/C(=N\N=C\c1ccc(N(C)C)cc1)c1ccccc1O2
IC50 (cell growth or viability, MTT; 48 h): 59.2 µM

C[C@]1([N+](=O)[O-])C(=O)c2cc(F)ccc2O[C@@H]1CC(=O)NC12CC3CC(CC(C3)C1)C2
IC50 (cell growth or viability, SRB; 96 h): 0.94 µM

COC(=O)c1c(-c2cccc([N+](=O)[O-])c2)c2n(c1C(=O)OC)CCn1cccc1-2
IC50 (cell growth or viability, MTT; 48 h): 40.6 µM

C#CCOC(=O)C[C@H]1Oc2ccccc2C(=O)[C@]1(C)[N+](=O)[O-]
IC50 (cell growth or viability, SRB; 96 h): 26.2 µM

CCc1c(C)c2ccc(OCC=Cc3ccccc3)c(C)c2oc1=O
IC50 (cell growth or viability, MTT): > 50 µM

C[C@]1([N+](=O)[O-])C(=O)c2c(F)cccc2O[C@@H]1CC(=O)NC12CC3CC(CC(C3)C1)C2
IC50 (cell growth or viability, SRB; 96 h): 2.91 µM

C=CCNC(=S)NNC(=O)COc1ccc2c(C)c(CC)c(=O)oc2c1C
IC50 (cell growth or viability, MTT): > 50 µM

CCCCNC(=O)C[C@H]1Oc2ccccc2C(=O)[C@]1(C)[N+](=O)[O-]
IC50 (cell growth or viability, SRB; 96 h): 9.97 µM

CCN1CCC2(CC1)C/C(=N\N=C\c1ccc(N(C)C)cc1)c1ccccc1O2
IC50 (cell growth or viability, MTT; 48 h): 55 µM

N#CC(C(=O)Nc1nnc(NC(=O)c2ccccc2)s1)C(=S)Nc1ccccc1 (centres unmarked)
IC50 (cell growth or viability, MTT; 48 h): 28.8 µM

COc1cccc2cc(C=C3C(=O)Nc4ccccc43)c(Cl)nc12
IC50 (cell growth or viability, MTT; 72 h): > 100 µM

C=CCc1ccc(OCc2nn(CN3CCOCC3)c(=S)o2)c(OC)c1
IC50 (cell growth or viability, MTT; 72 h): 1.1 µM

Cc1ccc2nc(Cl)c(C=C3C(=O)Nc4ccccc43)cc2c1
IC50 (cell growth or viability, MTT; 72 h): > 100 µM

COC(=O)c1c(-c2ccc(C)cc2)c2n(c1C(=O)OC)CCn1cccc1-2
IC50 (cell growth or viability, MTT; 48 h): 89.3 µM

C[C@]1([N+](=O)[O-])C(=O)c2ccccc2O[C@@H]1CC(=O)Nc1ccccc1
IC50 (cell growth or viability, SRB; 96 h): 6.44 µM

CCOc1ccc2c(C)c(CC)c(=O)oc2c1C
IC50 (cell growth or viability, MTT): > 50 µM

O=C(Nc1nnc(NC(=O)c2cc3ccccc3oc2=O)s1)c1ccccc1
IC50 (cell growth or viability, MTT; 48 h): 66.5 µM

C=CCc1ccc(OCc2nn(CN3CCCC3)c(=S)o2)c(OC)c1
IC50 (cell growth or viability, MTT; 72 h): 10 µM

Cc1cc(C)n(-c2nnc(NC(=O)c3ccccc3)s2)c(=O)c1C#N
IC50 (cell growth or viability, MTT; 48 h): 15.4 µM

CCNC(=S)NNC(=O)COc1ccc2c(C)c(CC)c(=O)oc2c1C
IC50 (cell growth or viability, MTT): > 50 µM

N#CC(=Cc1ccc(Cl)cc1)C(=O)Nc1nnc(NC(=O)c2ccccc2)s1
IC50 (cell growth or viability, MTT; 48 h): 21.9 µM

COC(=O)c1c(-c2cccc(O)c2)c2n(c1C(=O)OC)CCn1cccc1-2
IC50 (cell growth or viability, MTT; 48 h): 90.8 µM

CCc1c(C)c2ccc(OCc3nnc(S)n3N)c(C)c2oc1=O
IC50 (cell growth or viability, MTT): > 50 µM

C#CCNC(=O)C[C@H]1Oc2ccccc2C(=O)[C@]1(C)[N+](=O)[O-]
IC50 (cell growth or viability, SRB; 96 h): 13 µM

Nc1nnc(NC(=O)c2ccccc2)s1
IC50 (cell growth or viability, MTT; 48 h): 30 µM

COC(=O)c1c(-c2ccccc2)c2n(c1C(=O)OC)CCn1cccc1-2
IC50 (cell growth or viability, MTT; 48 h): 78.9 µM

Cc1c(Cc2ccccc2)c(=O)oc2c(C)c(OCC(=O)NN=Cc3ccco3)ccc12
IC50 (cell growth or viability, MTT): 8.99 µM

COc1cccc2c1C(=O)c1c(O)c3c(c(O)c1C2=O)C[C@@](O)(C(=O)CO)C[C@@H]3O[C@H]1C[C@H](N)[C@H](O)[C@H](C)O1
IC50 (cell growth or viability, MTT; 72 h): 2.61 µM

CCc1c(C)c2ccc(OCC(=O)NN=Cc3ccc([N+](=O)[O-])cc3)cc2oc1=O
IC50 (cell growth or viability, MTT): 10.2 µM

C=CCc1ccc(OCc2nn(CN3CCCCC3)c(=S)o2)c(OC)c1
IC50 (cell growth or viability, MTT; 72 h): 26.7 µM

N#CC(=Cc1cccs1)C(=O)Nc1nnc(NC(=O)c2ccccc2)s1
IC50 (cell growth or viability, MTT; 48 h): 11.1 µM

Cc1c(Cc2ccccc2)c(=O)oc2c(C)c(OCC(=O)NN=Cc3ccccc3)ccc12
IC50 (cell growth or viability, MTT): 37.6 µM

C[C@]1([N+](=O)[O-])C(=O)c2ccccc2O[C@@H]1CC(=O)Nc1ncccn1
IC50 (cell growth or viability, SRB; 96 h): > 50 µM

COc1ccc2nc(Cl)c(C=C3C(=O)Nc4ccccc43)cc2c1
IC50 (cell growth or viability, MTT; 72 h): > 100 µM

COC(=O)c1c(-c2ccc(O)c(OC)c2)c2n(c1C(=O)OC)CCn1cccc1-2
IC50 (cell growth or viability, MTT; 48 h): 47.7 µM

CCC(=O)O[C@H]1[C@H](C)O[C@@H](O[C@H]2[C@H](N(C)C)[C@@H](O)[C@H](O[C@H]3[C@@H](CC=O)C[C@@H](C)[C@@H](O)/C=C/C=C/C[C@@H](C)OC(=O)C[C@@H](O)[C@@H]3OC)O[C@@H]2C)C[C@@]1(C)O
IC50 (cell growth or viability, crystal violet; 72 h): > 50 µM

COc1ccc(-c2c3n(c4c(=O)[nH]nc(O)c24)CCn2cccc2-3)cc1
IC50 (cell growth or viability, MTT; 48 h): 68.3 µM

N#CC(C(=O)Nc1nnc(NC(=O)c2ccccc2)s1)=C1SCCN1c1ccccc1
IC50 (cell growth or viability, MTT; 48 h): 92.3 µM

Cc1ccccc1-c1c2n(c3c(=O)[nH]nc(O)c13)CCn1cccc1-2
IC50 (cell growth or viability, MTT; 48 h): 65.3 µM

O=C1Nc2ccccc2C1=Cc1cc2ccccc2nc1Cl
IC50 (cell growth or viability, MTT; 72 h): > 100 µM

Cc1cc(-c2ccccc2)n(-c2nnc(NC(=O)c3ccccc3)s2)c(=O)c1C#N
IC50 (cell growth or viability, MTT; 48 h): 86.5 µM

O=c1[nH]nc(O)c2c(-c3cccc([N+](=O)[O-])c3)c3n(c12)CCn1cccc1-3
IC50 (cell proliferation, MTT; 48 h): 17.66 ± 0.012 µM

Excerpt of the above:
Cc1c(Cc2ccccc2)c(=O)oc2c(C)c(OCC(=O)NN=Cc3ccco3)ccc12
IC50 (cell growth or viability, MTT): 8.99 µM

COc1cccc2c1C(=O)c1c(O)c3c(c(O)c1C2=O)C[C@@](O)(C(=O)CO)C[C@@H]3O[C@H]1C[C@H](N)[C@H](O)[C@H](C)O1
IC50 (cell growth or viability, MTT; 72 h): 2.61 µM

CCc1c(C)c2ccc(OCC(=O)NN=Cc3ccc([N+](=O)[O-])cc3)cc2oc1=O
IC50 (cell growth or viability, MTT): 10.2 µM

C=CCc1ccc(OCc2nn(CN3CCCCC3)c(=S)o2)c(OC)c1
IC50 (cell growth or viability, MTT; 72 h): 26.7 µM

N#CC(=Cc1cccs1)C(=O)Nc1nnc(NC(=O)c2ccccc2)s1
IC50 (cell growth or viability, MTT; 48 h): 11.1 µM

Cc1c(Cc2ccccc2)c(=O)oc2c(C)c(OCC(=O)NN=Cc3ccccc3)ccc12
IC50 (cell growth or viability, MTT): 37.6 µM

C[C@]1([N+](=O)[O-])C(=O)c2ccccc2O[C@@H]1CC(=O)Nc1ncccn1
IC50 (cell growth or viability, SRB; 96 h): > 50 µM
